Published values pooled from the literature.
Numbered parts are unrelated; each lists some results of a single study.
Sequence of UniProt Q16288 (whole entry, looked up): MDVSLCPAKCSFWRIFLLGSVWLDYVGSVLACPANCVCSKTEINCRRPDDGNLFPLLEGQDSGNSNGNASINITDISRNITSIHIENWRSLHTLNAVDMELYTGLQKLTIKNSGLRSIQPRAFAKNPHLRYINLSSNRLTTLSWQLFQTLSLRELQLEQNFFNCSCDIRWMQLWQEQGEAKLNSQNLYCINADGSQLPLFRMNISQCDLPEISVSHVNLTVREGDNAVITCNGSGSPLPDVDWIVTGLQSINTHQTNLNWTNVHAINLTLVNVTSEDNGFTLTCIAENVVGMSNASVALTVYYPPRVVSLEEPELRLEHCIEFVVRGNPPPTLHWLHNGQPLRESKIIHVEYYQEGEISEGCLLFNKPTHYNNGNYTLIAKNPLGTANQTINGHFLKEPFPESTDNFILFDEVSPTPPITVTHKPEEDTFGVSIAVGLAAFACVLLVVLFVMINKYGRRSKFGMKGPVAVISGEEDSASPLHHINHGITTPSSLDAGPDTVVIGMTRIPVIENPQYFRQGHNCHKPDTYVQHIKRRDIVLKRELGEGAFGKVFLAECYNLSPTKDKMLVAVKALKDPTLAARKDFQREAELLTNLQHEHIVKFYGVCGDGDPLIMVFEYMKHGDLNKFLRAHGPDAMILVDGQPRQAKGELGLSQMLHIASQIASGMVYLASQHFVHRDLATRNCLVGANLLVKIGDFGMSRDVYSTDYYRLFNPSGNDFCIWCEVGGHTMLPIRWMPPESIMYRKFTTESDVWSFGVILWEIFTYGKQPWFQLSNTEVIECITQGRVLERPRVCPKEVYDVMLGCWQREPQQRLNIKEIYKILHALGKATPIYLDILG
Sequence of UniProt P08069 (whole entry, looked up): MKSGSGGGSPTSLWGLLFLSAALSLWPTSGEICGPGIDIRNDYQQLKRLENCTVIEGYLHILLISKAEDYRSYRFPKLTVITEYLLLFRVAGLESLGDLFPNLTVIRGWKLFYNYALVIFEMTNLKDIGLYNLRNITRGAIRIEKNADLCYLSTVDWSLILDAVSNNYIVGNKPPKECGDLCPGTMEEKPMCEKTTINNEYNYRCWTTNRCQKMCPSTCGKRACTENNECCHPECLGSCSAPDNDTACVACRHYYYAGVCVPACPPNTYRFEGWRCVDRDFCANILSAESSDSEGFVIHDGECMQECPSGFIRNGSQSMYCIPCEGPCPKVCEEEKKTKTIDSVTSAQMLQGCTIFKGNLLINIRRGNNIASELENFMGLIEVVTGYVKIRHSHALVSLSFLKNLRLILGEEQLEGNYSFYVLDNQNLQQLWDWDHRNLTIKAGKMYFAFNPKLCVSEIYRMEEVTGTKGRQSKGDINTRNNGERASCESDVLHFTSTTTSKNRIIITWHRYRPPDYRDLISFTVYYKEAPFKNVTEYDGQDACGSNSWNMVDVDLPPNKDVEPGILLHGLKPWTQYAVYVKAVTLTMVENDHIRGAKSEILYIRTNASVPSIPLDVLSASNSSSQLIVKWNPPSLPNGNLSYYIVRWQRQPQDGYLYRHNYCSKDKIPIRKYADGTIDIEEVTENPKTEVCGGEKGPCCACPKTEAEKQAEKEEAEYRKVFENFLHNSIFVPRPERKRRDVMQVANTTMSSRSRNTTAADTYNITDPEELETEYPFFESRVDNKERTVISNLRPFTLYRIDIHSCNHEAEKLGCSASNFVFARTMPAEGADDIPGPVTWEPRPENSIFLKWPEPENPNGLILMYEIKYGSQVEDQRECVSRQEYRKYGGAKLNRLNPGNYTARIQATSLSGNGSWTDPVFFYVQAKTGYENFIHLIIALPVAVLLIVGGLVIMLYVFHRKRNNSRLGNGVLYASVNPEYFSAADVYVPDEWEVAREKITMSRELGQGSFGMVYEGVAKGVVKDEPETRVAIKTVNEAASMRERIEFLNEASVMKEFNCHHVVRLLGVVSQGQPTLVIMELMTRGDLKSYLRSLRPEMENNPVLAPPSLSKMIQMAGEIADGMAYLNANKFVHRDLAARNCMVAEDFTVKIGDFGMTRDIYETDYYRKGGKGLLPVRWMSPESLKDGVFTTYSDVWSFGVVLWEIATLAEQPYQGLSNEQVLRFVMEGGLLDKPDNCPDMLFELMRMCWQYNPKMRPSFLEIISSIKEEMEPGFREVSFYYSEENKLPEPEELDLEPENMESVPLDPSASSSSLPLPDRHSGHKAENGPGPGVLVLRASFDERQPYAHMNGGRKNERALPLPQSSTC

Set 1
Target: D(1A) dopamine receptor (DRD1, Homo sapiens, UniProt P21728)
Sequence of UniProt P21728 (whole entry, looked up): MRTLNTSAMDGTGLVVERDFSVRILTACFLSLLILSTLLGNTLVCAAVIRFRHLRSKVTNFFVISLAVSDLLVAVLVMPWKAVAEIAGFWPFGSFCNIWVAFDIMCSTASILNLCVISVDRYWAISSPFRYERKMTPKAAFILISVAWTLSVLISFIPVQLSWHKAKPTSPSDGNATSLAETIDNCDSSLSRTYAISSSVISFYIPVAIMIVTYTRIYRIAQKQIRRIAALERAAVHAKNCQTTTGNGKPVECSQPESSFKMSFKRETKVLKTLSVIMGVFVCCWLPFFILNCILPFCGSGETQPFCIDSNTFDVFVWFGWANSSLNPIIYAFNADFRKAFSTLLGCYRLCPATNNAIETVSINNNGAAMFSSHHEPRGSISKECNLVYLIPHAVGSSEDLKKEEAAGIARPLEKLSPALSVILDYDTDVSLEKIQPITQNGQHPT
Observed: binding
Technique: radioligand binding
Tested at: 10 µM
Compound	inhibition [%]
CCOC(=O)c1cc2cc(-c3cc(C(=O)NCc4ccc(C(=O)O)cc4)nn3C)ccc2[nH]1	-5.02
Cc1cc(C)c(-n2ccn3nc(-c4cccnc4)cc23)cc1NC(=O)c1cc(C#N)cc(S(F)(F)(F)(F)F)c1	4.82
CN1C(=O)[C@@H](N2CCc3cn(Cc4ccccc4)nc3C2=O)COc2ccccc21	18.8
CC(=O)Nc1nc(CN2CCC[C@H](Cc3cc(C)nc(C)c3)C2)cs1	10.7
O=C(Nc1cnc(Oc2ccc(F)cc2)nc1)N1CCc2ncccc2[C@@H]1c1ccc(F)cc1	23.7
Cc1c[nH]c2nccc(Oc3c(F)cc(Nc4cc(Cl)nc(N)n4)cc3F)c12	16.1
O=C(Nc1cccnn1)N1CC(CC=Cc2cncc(Oc3ccc(C(F)(F)F)cn3)n2)C1	1.14
CC(C)CC(=O)N1CCc2nc(-c3ccc(Br)cc3)nc(N(C)Cc3ccccc3)c2C1	18.5
COCCc1ccc(-c2c(C)nc3c(N4CCOCC4)ccnn23)cn1	2.41

Set 2
SMILES: C=CC(=O)N1CCC[C@@H](n2nc(-c3ccc(Oc4ccccc4)cc3)c3c(N)ncnc32)C1
Mode: inhibitor
Tested at: 1 µM
target	assay	inhibition [%]
TAOK1 (Homo sapiens, UniProt Q7L7X3)	enzyme activity	32
CDK19 (Homo sapiens, UniProt Q9BWU1)	–	33
IGF1R (Homo sapiens, UniProt P08069)	enzyme activity	16
EPHA5 (Homo sapiens, UniProt P54756)	enzyme activity	10
SGK2 (Homo sapiens, UniProt Q9HBY8)	enzyme activity	10
MAK (Homo sapiens, UniProt P20794)	enzyme activity	13
NTRK3 (Homo sapiens, UniProt Q16288)	enzyme activity	17
STK3 (Homo sapiens, UniProt Q13188)	enzyme activity	5

Set 3
Structure (SMILES): CN1CCN(C(=O)c2ccc(NC(=O)Nc3ccc(N(C)c4ccnc(Nc5ccc(CS(C)(=O)=O)cc5)n4)cc3)cc2)CC1
Tested at: 1 µM
target	assay	setting	scale	remaining binding
CDK11A (Homo sapiens, UniProt Q9UQ88)	competitive binding panel, item: CDC2L2	–	relative to: vehicle	51%
JAK1 (Homo sapiens, UniProt P23458)	competitive binding panel	JH1 catalytic domain	relative to: vehicle	76%
CSNK1G3 (Homo sapiens, UniProt Q9Y6M4)	competitive binding panel	–	relative to: vehicle	100%
CDK4 (Homo sapiens, UniProt P11802)	competitive binding scan	together with: cyclin D1	–	77%
MAP3K6 (Homo sapiens, UniProt O95382)	competitive binding panel, item: ASK2	–	relative to: vehicle	67%
PHKG1 (Homo sapiens, UniProt Q16816)	competitive binding panel	–	relative to: vehicle	100%
PIK3CA (Homo sapiens, UniProt P42336, I800L)	competitive binding panel	–	relative to: vehicle	98%
MAP4K4 (Homo sapiens, UniProt O95819)	competitive binding panel	–	relative to: vehicle	33%
MERTK (Homo sapiens, UniProt Q12866)	competitive binding panel	–	relative to: vehicle	56%

Set 4
Target: Proto-oncogene tyrosine-protein kinase ROS (ROS1, Homo sapiens, UniProt P08922)
Sequence of UniProt P08922 (whole entry, looked up): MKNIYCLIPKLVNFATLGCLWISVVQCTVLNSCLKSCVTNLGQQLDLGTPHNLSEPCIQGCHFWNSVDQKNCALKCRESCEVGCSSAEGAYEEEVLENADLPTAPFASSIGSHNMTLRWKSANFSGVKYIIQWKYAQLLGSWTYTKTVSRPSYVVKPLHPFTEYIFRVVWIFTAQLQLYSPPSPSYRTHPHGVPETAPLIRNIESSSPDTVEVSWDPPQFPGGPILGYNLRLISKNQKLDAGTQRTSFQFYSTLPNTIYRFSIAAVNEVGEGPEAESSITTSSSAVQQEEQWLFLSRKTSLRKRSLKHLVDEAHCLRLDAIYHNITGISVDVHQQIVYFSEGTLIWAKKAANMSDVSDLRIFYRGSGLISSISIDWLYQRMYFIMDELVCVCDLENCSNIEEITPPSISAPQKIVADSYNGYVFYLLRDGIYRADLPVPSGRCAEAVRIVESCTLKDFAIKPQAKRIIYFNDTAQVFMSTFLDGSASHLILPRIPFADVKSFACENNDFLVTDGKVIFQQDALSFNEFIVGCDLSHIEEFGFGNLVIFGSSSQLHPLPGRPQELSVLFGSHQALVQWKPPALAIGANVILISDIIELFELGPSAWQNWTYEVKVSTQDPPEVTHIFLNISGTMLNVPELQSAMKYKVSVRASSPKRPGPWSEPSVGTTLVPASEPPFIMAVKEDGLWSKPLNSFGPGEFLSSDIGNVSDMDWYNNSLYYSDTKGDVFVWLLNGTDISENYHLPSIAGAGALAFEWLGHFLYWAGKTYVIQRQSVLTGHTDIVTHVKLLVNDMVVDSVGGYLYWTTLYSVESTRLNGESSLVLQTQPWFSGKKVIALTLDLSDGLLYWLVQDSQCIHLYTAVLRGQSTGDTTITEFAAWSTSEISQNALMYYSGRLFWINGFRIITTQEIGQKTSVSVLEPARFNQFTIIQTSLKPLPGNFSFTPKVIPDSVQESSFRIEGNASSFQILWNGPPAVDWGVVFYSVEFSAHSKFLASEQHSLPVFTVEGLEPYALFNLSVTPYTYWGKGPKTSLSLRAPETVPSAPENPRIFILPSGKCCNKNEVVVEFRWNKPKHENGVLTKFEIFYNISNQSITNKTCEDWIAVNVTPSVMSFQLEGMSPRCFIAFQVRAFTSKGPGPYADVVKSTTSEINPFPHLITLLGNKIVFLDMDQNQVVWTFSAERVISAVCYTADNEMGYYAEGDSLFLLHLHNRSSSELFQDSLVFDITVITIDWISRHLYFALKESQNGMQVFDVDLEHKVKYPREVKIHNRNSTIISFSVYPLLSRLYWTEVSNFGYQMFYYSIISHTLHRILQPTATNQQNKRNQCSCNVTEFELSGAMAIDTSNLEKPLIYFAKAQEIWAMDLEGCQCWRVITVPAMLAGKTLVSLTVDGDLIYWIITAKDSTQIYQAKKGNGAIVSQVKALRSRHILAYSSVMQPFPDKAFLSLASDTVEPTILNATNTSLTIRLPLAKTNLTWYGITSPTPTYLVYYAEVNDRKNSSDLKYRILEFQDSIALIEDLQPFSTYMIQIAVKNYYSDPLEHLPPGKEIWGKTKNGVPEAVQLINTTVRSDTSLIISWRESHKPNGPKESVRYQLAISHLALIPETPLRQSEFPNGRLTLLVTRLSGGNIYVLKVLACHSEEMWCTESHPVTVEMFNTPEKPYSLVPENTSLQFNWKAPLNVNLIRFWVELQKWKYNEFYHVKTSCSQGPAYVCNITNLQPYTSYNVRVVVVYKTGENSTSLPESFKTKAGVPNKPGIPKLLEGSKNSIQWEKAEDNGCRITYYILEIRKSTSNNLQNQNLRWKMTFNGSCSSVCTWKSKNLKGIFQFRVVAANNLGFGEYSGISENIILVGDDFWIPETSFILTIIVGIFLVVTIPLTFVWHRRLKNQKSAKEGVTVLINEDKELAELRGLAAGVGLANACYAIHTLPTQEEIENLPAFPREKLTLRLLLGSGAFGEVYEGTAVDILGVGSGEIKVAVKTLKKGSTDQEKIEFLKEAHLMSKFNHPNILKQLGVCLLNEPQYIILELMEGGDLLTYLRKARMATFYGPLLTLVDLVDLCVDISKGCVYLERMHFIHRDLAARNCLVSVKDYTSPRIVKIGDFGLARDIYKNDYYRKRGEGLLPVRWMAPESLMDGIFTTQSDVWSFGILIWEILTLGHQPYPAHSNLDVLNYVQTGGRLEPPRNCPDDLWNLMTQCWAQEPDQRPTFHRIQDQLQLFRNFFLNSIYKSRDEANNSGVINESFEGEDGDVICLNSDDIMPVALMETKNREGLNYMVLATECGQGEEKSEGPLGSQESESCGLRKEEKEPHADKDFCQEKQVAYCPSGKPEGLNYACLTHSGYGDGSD
Observed: enzyme activity
Mode: inhibitor
Tested at: 0.5 µM
Relative to: control
Compound	remaining activity [%]
N#CC(C#N)=C(N)/C(C#N)=C/c1ccc(O)cc1	97.1
Cn1c2ccccc2c2c3c(c4c5ccccc5n(CCC#N)c4c21)CNC3=O	1.18
COc1cc2ncnc(Nc3ccc(Oc4ccccc4)cc3)c2cc1OC	95.3
O=C(CCCc1ccc(-c2ccccc2F)cc1)Nc1ccc(O)cc1	98.4
COc1ccc(CNC(=O)Nc2ncc([N+](=O)[O-])s2)cc1	100
O=S(=O)(c1cccc2cnccc12)N1CCCNCC1	101
COc1cc2ncnc(Nc3ccc(F)c(Cl)c3)c2cc1OCCCN1CCOCC1	92.3
Cc1ccc(NC(=O)c2ccc(CN3CCN(C)CC3)cc2)cc1Nc1nc(-c2cccnc2)cs1	91.5
Nc1[nH]nc2nc3ccccc3nc12	106
CC(C)[C@H](CO)Nc1nc(Nc2cc(N)cc(Cl)c2)c2ncn(C(C)C)c2n1	96.5
O=c1c2ccccc2[nH]c(=S)n1CCN1CCC(=C(c2ccc(F)cc2)c2ccc(F)cc2)CC1	98.8
Nc1ncnc2n[nH]c(Nc3ccc(F)cc3)c12	99.9
COc1ccc(OC)c2c(=S)c3ccccc3[nH]c12	103
COc1ccc(C(=O)Nc2sc3c(c2C(N)=O)CCCC3)cc1OC	78.8
Oc1ccc(-c2nc(-c3ccncc3)c(-c3ccc(F)cc3)[nH]2)cc1	89.8

Some of these lines once more (set 1):
Compound	inhibition [%]
CN1C(=O)[C@@H](N2CCc3cn(Cc4ccccc4)nc3C2=O)COc2ccccc21	18.8
CC(=O)Nc1nc(CN2CCC[C@H](Cc3cc(C)nc(C)c3)C2)cs1	10.7
O=C(Nc1cnc(Oc2ccc(F)cc2)nc1)N1CCc2ncccc2[C@@H]1c1ccc(F)cc1	23.7
Cc1c[nH]c2nccc(Oc3c(F)cc(Nc4cc(Cl)nc(N)n4)cc3F)c12	16.1
O=C(Nc1cccnn1)N1CC(CC=Cc2cncc(Oc3ccc(C(F)(F)F)cn3)n2)C1	1.14
CC(C)CC(=O)N1CCc2nc(-c3ccc(Br)cc3)nc(N(C)Cc3ccccc3)c2C1	18.5
